# Experimental data pooled from the literature.
# Numbered parts are unrelated; each lists some results of a single study.

# Study 1 — technique: RNA Bind-n-Seq; molecule type: RNA; matrix: in vitro; concentration: 200 nM; setting: whole 134-nt RNA, ends assumed; with: 150 mM LiCl; reference: input library; direction: higher = stronger binding; all molecules: 7-deaza-guanosine replaces G
# Target: Ras GTPase-activating protein-binding protein 1, full length (G3BP1, Homo sapiens, UniProt Q13283)
# UniProt Q13283, sequence (whole entry, looked up): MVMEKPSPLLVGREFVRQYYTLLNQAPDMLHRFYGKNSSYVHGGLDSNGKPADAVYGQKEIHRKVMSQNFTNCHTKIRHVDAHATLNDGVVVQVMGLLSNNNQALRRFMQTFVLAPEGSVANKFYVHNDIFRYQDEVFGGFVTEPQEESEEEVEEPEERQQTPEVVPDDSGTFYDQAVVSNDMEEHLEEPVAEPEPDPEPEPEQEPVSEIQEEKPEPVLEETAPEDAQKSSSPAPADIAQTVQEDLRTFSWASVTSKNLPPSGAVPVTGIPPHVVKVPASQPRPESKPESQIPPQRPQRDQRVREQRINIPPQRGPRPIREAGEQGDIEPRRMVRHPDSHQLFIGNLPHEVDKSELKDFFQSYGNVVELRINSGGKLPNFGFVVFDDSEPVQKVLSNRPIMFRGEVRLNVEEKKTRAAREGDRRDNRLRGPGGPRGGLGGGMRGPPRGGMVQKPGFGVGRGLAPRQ
# Constant ends, left off below: GGGAGUUCUACAGUCCGACGAUC … UGGAAUUCUCGGGUGUCAAGG
Oligonucleotide,log2 enrichment
CACAGACAACACGCACCCACACAGACACAGAGGGAAAAAGUUGGGAUGGGGACAGGGUGCACAGCAGGGCGGGGUAGGACCCCAGCCCCU,-1.51
AGUCCUGUGCUACACAUCGUAUGUACCGAAUCGGGUUUGGGAAAAAGGGAAAAAGGGAAAGUAUUAUGUUACGCCGUUCGGAUCUGCACU,-0.897
CAAGUCCUGUGCUACACAUCGUAUGUACCGAAUCGGAGGAAAAAGGUUUUUUUGGAAAGUAUUAUGUUACGCCGUUCGGAUCUGCACUUC,-0.805
AAGUCCUGUGCUACACAUCGUAUGUACCGAAUCGGGGAAAGGGAAAGGGGAAAGGGAAAGUAUUAUGUUACGCCGUUCGGAUCUGCACUU,0.278
UGGGAGGUUGAUUUUGUUUAUUUUUUUAGCUCAUUUCCAGGGGUGGGAAUUUUUUUUUAAUAUGUGUCAUGAAUAAAGUUGUUUUUGAAA,-0.115
CUCAAGUCCUGUGCUACACAUCGUAUGUACCGAAUCGGAAGGGGAAGGGGAAGGAAAGUAUUAUGUUACGCCGUUCGGAUCUGCACUUCC,-0.136
GUCCUGUGCUACACAUCGUAUGUACCGAAUCGGUUUUUGGGUUUUUGGGGUUUUUGGGGAAAGUAUUAUGUUACGCCGUUCGGAUCUGCA,-0.427
CACAGACAACACGCACCCACACAGACACAGAGGGAAGGGGUUGGGAUGGGCACAGGGUGCACAGCAGGGCGGGGUAGGACCCCAGCCCCU,0.388
UUGGACUAUGGAUCAGGUACUGUGCUCAGCAUCAGAAAAUGGGAUGACAAUGAACAGAGUAACAGGACUAUAUUUCUGAAAAAGGAUGAA,-0.893
CUCAAGUCCUGUGCUACACAUCGUAUGUACCGAAUCGGUGGAAAGGAAAAAGGAAAGUAUUAUGUUACGCCGUUCGGAUCUGCACUUCCA,-0.274
CCUGUGCUACACAUCGUAUGUACCGAAUCGGGUUUUUUGGGUUUUUUGGGGUUUUUUGGGGAAAGUAUUAUGUUACGCCGUUCGGAUCUG,0.297

# Study 2 — technique: competition protein-binding microarray; molecule type: double-stranded DNA, one strand shown; matrix: in vitro; concentration: 2 µM; with: Cbf1 competitor, 0.05 µM; direction: higher = stronger binding; constant ends, left off below: … GTCTTGATTCGCTTGACGCTGCTG
# Target: Phosphate system positive regulatory protein PHO4, full length, GST-tagged (PHO4, Saccharomyces cerevisiae, UniProt P07270, residues 1-312)
# Setting: whole 60-bp probe, lowest competitor level
# Target sequence (chain): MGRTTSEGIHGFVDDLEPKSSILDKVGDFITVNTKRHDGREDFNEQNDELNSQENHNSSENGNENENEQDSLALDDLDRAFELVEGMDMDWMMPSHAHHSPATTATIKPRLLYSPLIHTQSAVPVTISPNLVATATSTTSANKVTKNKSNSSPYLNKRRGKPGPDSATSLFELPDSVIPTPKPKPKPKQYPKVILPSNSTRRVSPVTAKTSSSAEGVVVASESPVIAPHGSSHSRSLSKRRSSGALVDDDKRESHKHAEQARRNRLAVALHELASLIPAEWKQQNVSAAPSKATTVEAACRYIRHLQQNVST
Oligonucleotide,fluorescence intensity [a.u.]
CGTCCTAGTGATTTTCACGTGAGCTCCATGAGGAAG,11400
AAATTACTAAGTTGCGAAGTGGGTGACGCCGTATGA,3210
GCATATTGAAACCATCACGGGAACGAGAAGAATGGC,5870
CTAACGAAGGTTTGAGTAGTGGGTGACAAGCCAAGT,3800
AAATTACTAAGTTGGGCTGTGGGTGACGCCGTATGA,4130
CTTTGCCGAACCCATCACGGCATAACCTGCAGAATA,3910
TTTCCTCTTGAGATGGACGTGCTTTAGCCGGCCGGA,5470
CGGGGTTAAGTTTTTCACGTGGACTGCTTGCAGCAG,12600
CGGGGTTAAGTTTATCACGTGTTTTGCTTGCAGCAG,16600
CCGCCCCCCACCTTGCATGCGGATTGGTTGTCCAAA,7310
GTCTTGTCTCATTTTCACGTGTTGTTCCCCACTTCA,12600
GGGCTACGGCGAGCGCACGCGCATACGTTGACCGCA,9030
AATCTCGAGTAGGTGCACGTGGTACCTACCTCGAGA,17400
TCTCCTAGGGGCAGTCTCGTGCTAATTAGCAGCTTT,6670
ATATATCTACTCCATCACGTTGCAAGACCCATCACA,11900
CATACCCAACCTTTTCACGTGCCCTAAGATATTTGT,18700
AAATTACTAAGTTGTCACGTTACTTACCCCGTATGA,8770
CGTCCTAGTGATTTTCACGTGATGTCCATGAGGAAG,11800
GACCATATCTTTGTACGCATTGTTTCCATTCAAAGA,4500
CATACCCAACCTTTTCACGTGTGGTAAGATATTTGT,13800
TGCGCAACAACTTTTCACGTGCTGTTATGTCTAGAA,15100
TTTCAAAGCTGCCTCCACGTGGAACTTTTATTTCAT,17500
TAGTGGAAGGATGTACTCGTGATGGGGTTATGGTAG,8260
TCGAGCTGACACTATCACATGCGATTGCGCAATCTT,7130
TTGTGGGAGTGATTGTGCGTGTATATGTGTGTTGGC,8020

# Study 3 — technique: universal PBM; molecule type: double-stranded DNA, one strand shown; matrix: in vitro; concentration: not given; direction: higher = stronger binding
# Target: Sal-like protein 4, full length isoform B (SALL4, Homo sapiens, UniProt Q9UJQ4-2, residues 1-616)
# Setting: 8-mer, flanks averaged, mean of replicates
Oligonucleotide,E-score
GAGCCAAA,-0.135
GAATCGTC,-0.0837
AAATTGTA,0.324
CGCCCGAC,-0.219
ACGGGCTA,-0.139
CTGTGGTC,-0.194
ACTCAAAC,0.0892
ACTCACCA,0.0239
CTTCGCGC,-0.0733
ATTTACGA,0.28
CACTGCTC,-0.0298
CCTATGCA,0.175
GACCAACA,0.0737
ACAAGGGT,0.104
GCTTGGAC,-0.155
AATAGCGC,0.115
CTAAAGGC,-0.0501
CGACAGGA,0.0102
CCTATCGA,0.107
CAGCACAG,-0.108
CTACACCA,0.157
AAGGTAGC,-0.168
CGAGCTAC,-0.0813
CTCTCTGA,-0.236

# Study 4 — technique: aptamer microarray, sandwich; molecule type: DNA with 2'F-ANA; matrix: in vitro; concentration: 200 nM; with: Cy3 exosite-II aptamer, 400 nM; direction: higher = stronger binding; oligonucleotide: GGTTGGTGTGGTTGG
# Target: Prothrombin, mature alpha-thrombin (F2, Homo sapiens, UniProt P00734)
# Setting: whole 15-mer aptamer, many near background
Modification,mean fluorescence intensity [a.u.]
2'F-ANA at 2 4 7 10 12,159
2'F-ANA at 1 2 6 9 10 11 13 15,65
2'F-ANA at 4 9 13,209
2'F-ANA at 6 7 9 14,158
2'F-ANA at 2 3 4 5 10 11 12 15,56.1
2'F-ANA at 1 3 5 8 12 14,55.5
2'F-ANA at 2 3 4 5 6 8 11 12,191
2'F-ANA at 1 2 5 6 9 13 15,47.4
2'F-ANA at 2 3 5 8 9 10 15,75.1
2'F-ANA at 1 4 5 6 7 8 11 12 13,72.4
2'F-ANA at 2 6 7 9 10 11 12 15,113
2'F-ANA at 1 3 5 7 10 12 15,52.5
2'F-ANA at 3 4 11 12 14 15,367
2'F-ANA at 2 3 4 7 8 11 15,596
2'F-ANA at 2 8 9 10,160
2'F-ANA at 1 3 4 5 6 10 12 13 15,289
2'F-ANA at 2 3 4 5 12 15,183
2'F-ANA at 1 2 3 7 8 10 11 12 13 14,52.8
2'F-ANA at 3 4 5 8 11 12 13 15,115
2'F-ANA at 1 3 6 9 10 11 14,110
2'F-ANA at 2 8 10 11 13 15,152
2'F-ANA at 1 4 7 8 13 15,115
2'F-ANA at 1 3 4 5 7 11 13 15,48.3
2'F-ANA at 1 2 5 6 7 8 9 14 15,68.3
2'F-ANA at 1 3 5 6 8 10 11 13 14,79.6

# For quick reference, copied from above (study 4):
Modification,mean fluorescence intensity [a.u.]
2'F-ANA at 1 2 3 7 8 10 11 12 13 14,52.8
2'F-ANA at 4 9 13,209
2'F-ANA at 1 3 5 8 12 14,55.5
2'F-ANA at 1 3 4 5 7 11 13 15,48.3
2'F-ANA at 1 3 4 5 6 10 12 13 15,289
2'F-ANA at 1 3 5 7 10 12 15,52.5
2'F-ANA at 1 4 7 8 13 15,115
2'F-ANA at 3 4 5 8 11 12 13 15,115
2'F-ANA at 2 3 4 7 8 11 15,596
2'F-ANA at 2 3 4 5 6 8 11 12,191
